# Assay results from different studies.
# Parts stem from different laboratories: compare values within a part only. “And” joins repeats or separate records; there may be more than shown. pIC50: −log10 of the molar value.
# Chain of UniProt P21709 (whole entry, looked up): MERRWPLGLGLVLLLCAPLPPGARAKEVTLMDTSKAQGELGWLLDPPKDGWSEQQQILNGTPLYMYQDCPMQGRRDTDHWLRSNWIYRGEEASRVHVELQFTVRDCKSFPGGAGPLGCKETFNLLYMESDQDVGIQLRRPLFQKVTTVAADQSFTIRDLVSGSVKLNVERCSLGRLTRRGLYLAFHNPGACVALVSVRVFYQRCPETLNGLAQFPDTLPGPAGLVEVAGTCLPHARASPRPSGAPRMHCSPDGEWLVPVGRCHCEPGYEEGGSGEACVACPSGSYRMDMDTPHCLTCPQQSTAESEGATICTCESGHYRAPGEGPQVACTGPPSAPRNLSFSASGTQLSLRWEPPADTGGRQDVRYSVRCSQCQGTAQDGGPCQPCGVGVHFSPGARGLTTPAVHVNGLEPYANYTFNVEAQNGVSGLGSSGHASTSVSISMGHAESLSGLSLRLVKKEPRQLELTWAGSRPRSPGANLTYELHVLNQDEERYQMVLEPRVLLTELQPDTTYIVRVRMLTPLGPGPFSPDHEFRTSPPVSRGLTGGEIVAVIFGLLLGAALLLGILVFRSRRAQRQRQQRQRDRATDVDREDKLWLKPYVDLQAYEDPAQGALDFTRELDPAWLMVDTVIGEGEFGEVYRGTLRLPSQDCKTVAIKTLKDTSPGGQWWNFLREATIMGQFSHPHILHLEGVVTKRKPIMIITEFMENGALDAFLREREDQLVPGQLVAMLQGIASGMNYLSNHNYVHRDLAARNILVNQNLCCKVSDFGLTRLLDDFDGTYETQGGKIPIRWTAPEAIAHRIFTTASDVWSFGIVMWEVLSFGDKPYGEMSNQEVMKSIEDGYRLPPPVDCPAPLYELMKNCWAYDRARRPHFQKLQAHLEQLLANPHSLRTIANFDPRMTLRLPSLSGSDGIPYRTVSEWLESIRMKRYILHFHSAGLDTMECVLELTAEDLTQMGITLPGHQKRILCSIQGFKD
# Chain of UniProt Q96RG2 (whole entry, looked up): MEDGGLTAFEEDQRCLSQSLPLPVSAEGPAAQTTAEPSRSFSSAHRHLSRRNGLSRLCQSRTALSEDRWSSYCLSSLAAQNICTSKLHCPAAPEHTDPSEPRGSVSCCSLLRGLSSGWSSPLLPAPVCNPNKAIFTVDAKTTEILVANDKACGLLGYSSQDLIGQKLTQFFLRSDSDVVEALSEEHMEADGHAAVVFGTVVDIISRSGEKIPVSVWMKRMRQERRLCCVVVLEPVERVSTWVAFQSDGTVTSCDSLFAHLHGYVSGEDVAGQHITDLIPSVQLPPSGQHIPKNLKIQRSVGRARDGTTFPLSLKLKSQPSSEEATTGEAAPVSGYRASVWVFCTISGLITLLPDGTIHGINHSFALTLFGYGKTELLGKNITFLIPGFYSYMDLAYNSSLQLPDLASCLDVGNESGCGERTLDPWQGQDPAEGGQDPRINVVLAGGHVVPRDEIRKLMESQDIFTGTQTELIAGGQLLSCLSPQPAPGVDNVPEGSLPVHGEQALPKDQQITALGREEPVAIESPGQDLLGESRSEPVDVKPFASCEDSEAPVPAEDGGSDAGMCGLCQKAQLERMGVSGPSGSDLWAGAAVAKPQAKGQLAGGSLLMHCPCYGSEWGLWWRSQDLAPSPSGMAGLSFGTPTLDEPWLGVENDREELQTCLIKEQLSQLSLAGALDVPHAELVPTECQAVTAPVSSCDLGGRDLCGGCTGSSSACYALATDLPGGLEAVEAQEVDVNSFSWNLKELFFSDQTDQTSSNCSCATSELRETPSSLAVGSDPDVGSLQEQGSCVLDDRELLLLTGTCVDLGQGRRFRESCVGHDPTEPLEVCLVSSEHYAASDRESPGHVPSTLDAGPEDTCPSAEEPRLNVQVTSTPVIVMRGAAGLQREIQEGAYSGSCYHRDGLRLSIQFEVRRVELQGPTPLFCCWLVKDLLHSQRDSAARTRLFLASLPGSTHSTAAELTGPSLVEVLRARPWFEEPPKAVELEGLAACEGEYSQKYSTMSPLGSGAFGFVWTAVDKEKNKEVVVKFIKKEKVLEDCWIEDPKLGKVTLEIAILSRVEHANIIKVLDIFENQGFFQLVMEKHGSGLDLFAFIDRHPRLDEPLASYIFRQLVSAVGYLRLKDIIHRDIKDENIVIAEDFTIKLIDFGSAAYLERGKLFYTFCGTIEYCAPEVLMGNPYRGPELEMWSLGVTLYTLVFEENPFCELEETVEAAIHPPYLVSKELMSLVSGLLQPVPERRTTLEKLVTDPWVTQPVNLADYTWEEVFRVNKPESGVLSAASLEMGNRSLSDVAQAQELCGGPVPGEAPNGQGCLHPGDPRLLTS
# Chain of UniProt Q8IW41 (whole entry, looked up): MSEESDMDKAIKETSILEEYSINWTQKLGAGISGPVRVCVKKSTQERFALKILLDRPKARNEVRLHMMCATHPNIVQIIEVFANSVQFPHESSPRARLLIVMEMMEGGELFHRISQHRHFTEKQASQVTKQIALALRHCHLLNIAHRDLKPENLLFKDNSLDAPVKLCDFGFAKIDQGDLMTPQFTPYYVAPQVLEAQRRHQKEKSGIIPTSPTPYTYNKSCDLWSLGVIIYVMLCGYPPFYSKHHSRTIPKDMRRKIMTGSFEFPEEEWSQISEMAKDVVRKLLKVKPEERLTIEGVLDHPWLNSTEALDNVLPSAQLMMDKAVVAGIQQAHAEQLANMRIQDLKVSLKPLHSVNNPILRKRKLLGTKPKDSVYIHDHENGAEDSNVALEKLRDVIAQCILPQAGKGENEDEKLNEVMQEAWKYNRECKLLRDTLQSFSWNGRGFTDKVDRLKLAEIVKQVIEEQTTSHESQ
# Chain of UniProt P29376 (whole entry, looked up): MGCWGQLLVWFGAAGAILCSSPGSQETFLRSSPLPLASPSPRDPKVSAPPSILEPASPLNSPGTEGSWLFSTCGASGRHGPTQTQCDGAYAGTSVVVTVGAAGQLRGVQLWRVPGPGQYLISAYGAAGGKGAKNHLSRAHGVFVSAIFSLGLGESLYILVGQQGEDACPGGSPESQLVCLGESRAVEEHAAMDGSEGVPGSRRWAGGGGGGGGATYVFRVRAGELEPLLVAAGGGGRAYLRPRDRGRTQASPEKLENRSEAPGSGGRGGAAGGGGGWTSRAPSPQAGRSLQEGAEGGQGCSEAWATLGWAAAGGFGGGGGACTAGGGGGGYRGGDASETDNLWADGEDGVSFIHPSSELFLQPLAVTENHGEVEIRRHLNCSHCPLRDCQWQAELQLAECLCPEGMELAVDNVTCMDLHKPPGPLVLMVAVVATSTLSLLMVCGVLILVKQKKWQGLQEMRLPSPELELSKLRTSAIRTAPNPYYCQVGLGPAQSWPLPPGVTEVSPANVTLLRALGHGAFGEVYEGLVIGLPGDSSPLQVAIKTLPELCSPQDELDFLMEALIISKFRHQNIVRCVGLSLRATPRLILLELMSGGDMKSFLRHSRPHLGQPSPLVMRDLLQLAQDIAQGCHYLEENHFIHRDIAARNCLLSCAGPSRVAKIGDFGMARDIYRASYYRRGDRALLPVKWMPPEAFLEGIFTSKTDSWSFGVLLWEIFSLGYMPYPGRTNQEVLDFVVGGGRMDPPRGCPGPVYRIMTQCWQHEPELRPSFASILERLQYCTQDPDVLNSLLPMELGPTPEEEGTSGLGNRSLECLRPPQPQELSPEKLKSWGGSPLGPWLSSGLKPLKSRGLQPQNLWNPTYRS
# Chain of UniProt O94921 (whole entry, looked up): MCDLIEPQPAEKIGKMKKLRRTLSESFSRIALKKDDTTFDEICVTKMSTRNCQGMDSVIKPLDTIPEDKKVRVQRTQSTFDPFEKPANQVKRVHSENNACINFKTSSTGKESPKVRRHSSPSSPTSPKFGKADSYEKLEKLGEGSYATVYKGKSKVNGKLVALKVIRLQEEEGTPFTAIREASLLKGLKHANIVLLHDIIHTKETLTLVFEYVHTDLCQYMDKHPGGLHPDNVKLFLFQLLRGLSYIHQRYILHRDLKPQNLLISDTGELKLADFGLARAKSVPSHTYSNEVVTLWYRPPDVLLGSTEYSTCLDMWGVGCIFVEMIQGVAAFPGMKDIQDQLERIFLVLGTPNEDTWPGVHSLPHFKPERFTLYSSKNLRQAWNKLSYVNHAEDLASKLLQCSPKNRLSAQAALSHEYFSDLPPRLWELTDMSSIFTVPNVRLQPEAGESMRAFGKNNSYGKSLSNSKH

# Sample 1
# SMILES: CC(C)(C(=O)O)[C@H](NC(=O)Cc1cccc(I)c1)c1ccc2oc(=O)[nH]c2c1
# Technique: Incucyte 3D growth
# Tested at: 30 µM
# Direction: higher = more growth
cell line,conditions,spheroid area
PC-9,0 h,2.45e+08 a.u. and 2.27e+08 a.u. and 2.42e+08 a.u. and 2.58e+08 a.u. and 2.43e+08 a.u.
A375,162.52 h,1.13e+08 a.u. and 1.18e+08 a.u. and 1.17e+08 a.u. and 9.73e+07 a.u.
KP-4,6 h,2.14e+07 a.u. and 1.48e+07 a.u. and 1.55e+07 a.u. and 1.73e+07 a.u. and 1.81e+07 a.u. and 2.19e+07 a.u.
A375,132 h,8.13e+07 a.u. and 7.78e+07 a.u. and 8.57e+07 a.u. and 6.73e+07 a.u. and 9.4e+07 a.u. and 7.54e+07 a.u.
A375,444.52 h,1.61e+08 a.u. and 1.77e+08 a.u. and 1.67e+08 a.u. and 1.45e+08 a.u. and 1.8e+08 a.u. and 1.59e+08 a.u.

# Sample 2
# Compound: CC(C)S(=O)(=O)c1ccc2nccc(Nc3ccc4scnc4c3)c2c1
tested on,test,test system,conditions,CC50
L929,"cell viability, CCK-8",,"without zVAD, 10% FBS, mean of 3",6.32 µM
L929,cell growth or viability,,,22.5 µM
,CCK-8,"L929 RIPK3 knockout, mouse",MEM with 10% FBS,28.8 µM and 18.9 µM

# Sample 3
# Structure (SMILES): O=C(O)c1cc(-c2ccc(C3CCNCC3)cc2)c2ccc(-c3ccc(C(F)(F)F)cc3)cc2c1
# Tested at: 1 µM
target,test,remaining binding [%]
"CILK1 (Homo sapiens, UniProt Q9UPZ9)","cell-free assay, competition with immobilised ligand",100
"FLT3 (Homo sapiens, UniProt P36888, ITD)","cell-free assay, competition with immobilised ligand",99
"NEK4 (Homo sapiens, UniProt P51957)","cell-free assay, competition with immobilised ligand",100
"RIPK4 (Homo sapiens, UniProt P57078)","cell-free assay, competition with immobilised ligand",100
"PIP4K2B (Homo sapiens, UniProt P78356)","cell-free assay, competition with immobilised ligand",91
"WNK4 (Homo sapiens, UniProt Q96J92)","cell-free assay, competition with immobilised ligand",100
"CLK2 (Homo sapiens, UniProt P49760)","cell-free assay, competition with immobilised ligand",100
"CAMK2D (Homo sapiens, UniProt Q13557)","cell-free assay, competition with immobilised ligand",100
"LTK (Homo sapiens, UniProt P29376)","cell-free assay, competition with immobilised ligand",100
"Tyrosine-protein kinase ABL1, phosphorylated (ABL1, Homo sapiens, UniProt P00519)","cell-free assay, competition with immobilised ligand",75
"DSTYK (Homo sapiens, UniProt Q6XUX3)","cell-free assay, competition with immobilised ligand",100
"INSRR (Homo sapiens, UniProt P14616)","cell-free assay, competition with immobilised ligand",100
"FLT3 (Homo sapiens, UniProt P36888, D835Y)","cell-free assay, competition with immobilised ligand",100
"ROCK2 (Homo sapiens, UniProt O75116)","cell-free assay, competition with immobilised ligand",100
"TNNI3K (Homo sapiens, UniProt Q59H18)","cell-free assay, competition with immobilised ligand",100
"BLK (Homo sapiens, UniProt P51451)","cell-free assay, competition with immobilised ligand",86
"Macrophage colony-stimulating factor 1 receptor, autoinhibited (CSF1R, Homo sapiens, UniProt P07333)","cell-free assay, competition with immobilised ligand",85
"Aurora kinase B (AURKB, Homo sapiens, UniProt Q96GD4)","cell-free assay, competition with immobilised ligand",100
"EPHA1 (Homo sapiens, UniProt P21709)","cell-free assay, competition with immobilised ligand",100
"STK32A (Homo sapiens, UniProt Q8WU08)","cell-free assay, competition with immobilised ligand",100
"MAPKAPK5 (Homo sapiens, UniProt Q8IW41)","cell-free assay, competition with immobilised ligand",100
"DAPK3 (Homo sapiens, UniProt O43293)","cell-free assay, competition with immobilised ligand",100
"ALK (Homo sapiens, UniProt Q9UM73, C1156Y)","cell-free assay, competition with immobilised ligand",100
"ABL2 (Homo sapiens, UniProt P42684)","cell-free assay, competition with immobilised ligand",100
"SIK1 (Homo sapiens, UniProt P57059)",competition binding,100

# Sample 4
# Target: Beta-1 adrenergic receptor (ADRB1, Homo sapiens, UniProt P08588)
# Chain of UniProt P08588 (whole entry, looked up): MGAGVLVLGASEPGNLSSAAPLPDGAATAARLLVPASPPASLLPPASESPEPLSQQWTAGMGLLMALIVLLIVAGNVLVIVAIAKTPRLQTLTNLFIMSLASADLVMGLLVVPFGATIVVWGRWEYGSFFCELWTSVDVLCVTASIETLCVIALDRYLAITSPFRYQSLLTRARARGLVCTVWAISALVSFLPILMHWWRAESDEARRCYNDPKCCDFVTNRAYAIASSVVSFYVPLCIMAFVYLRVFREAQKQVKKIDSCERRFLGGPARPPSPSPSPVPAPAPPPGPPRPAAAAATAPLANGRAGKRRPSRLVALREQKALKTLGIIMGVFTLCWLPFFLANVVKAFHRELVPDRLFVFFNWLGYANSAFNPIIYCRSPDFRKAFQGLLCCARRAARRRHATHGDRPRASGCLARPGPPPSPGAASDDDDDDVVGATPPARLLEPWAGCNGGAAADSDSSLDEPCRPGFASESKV
# Mode: antagonist
Structure (SMILES),pIC50
CCCC1C=CCN1C(=O)c1cc(-c2ccncc2)nc2ccccc12 (centres unmarked),≤ 4.00
Cc1c[nH]c(=O)n(CCCN2CCN(c3ccccc3OCC(F)(F)F)CC2)c1=O,≤ 4.00
CN1CCN(Cc2cccc(OCC(O)CN3CCOCC3)c2)CC1(C)C (centres unmarked),≤ 4.00
Cc1noc2c(-c3cnn(Cc4ccccc4)c3)cc(-c3cccnc3)nc12,≤ 4.00
COc1ccccc1N1CCN(C(=O)c2ccc3ccccc3n2)CC1,≤ 4.00

# Sample 5
# SMILES: O=C(Nc1cnn(-c2csc(C(=O)NC3COC3)c2)c1)Nc1c(F)cccc1Cl
# Effect on: enzyme activity
# Tested at: 5 µM
target,test,how to read,remaining activity [%]
"EPHA1 (Homo sapiens, UniProt P21709)",,relative to: untreated control,87.5
"MYLK3 (Homo sapiens, UniProt Q32MK0)",,relative to: untreated control,92.1
"PASK (Homo sapiens, UniProt Q96RG2)",,relative to: untreated control,93.3
"MAP4K4 (Homo sapiens, UniProt O95819)",,relative to: untreated control,81.6
"CAMK1G (Homo sapiens, UniProt Q96NX5)",inhibitor,,94
"PAK3 (Homo sapiens, UniProt O75914)",,relative to: untreated control,62.4
"CDK14 (Homo sapiens, UniProt O94921)",,relative to: untreated control,104

# Sample 6
# Target: Calcium/calmodulin-dependent protein kinase type II subunit alpha (CAMK2A, Homo sapiens, UniProt Q9UQM7)
# Chain of UniProt Q9UQM7 (whole entry, looked up): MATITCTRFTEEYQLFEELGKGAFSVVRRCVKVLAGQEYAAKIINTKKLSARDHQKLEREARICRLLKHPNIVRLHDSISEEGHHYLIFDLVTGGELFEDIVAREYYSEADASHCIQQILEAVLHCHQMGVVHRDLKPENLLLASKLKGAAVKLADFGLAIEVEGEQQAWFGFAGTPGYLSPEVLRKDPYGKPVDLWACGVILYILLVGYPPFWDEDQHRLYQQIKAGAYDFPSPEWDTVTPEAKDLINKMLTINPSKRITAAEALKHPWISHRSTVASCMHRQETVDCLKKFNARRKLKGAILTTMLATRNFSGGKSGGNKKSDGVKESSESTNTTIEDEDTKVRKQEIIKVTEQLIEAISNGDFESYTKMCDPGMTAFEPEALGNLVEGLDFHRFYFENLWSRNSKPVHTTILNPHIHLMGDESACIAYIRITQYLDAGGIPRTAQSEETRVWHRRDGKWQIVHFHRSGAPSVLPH
# Effect on: enzyme activity
# Mode: inhibitor
# Tested at: 10 µM
SMILES,inhibition [%]
CCn1c(=O)c2c(nc(/C=C/c3ccc(OC)c(OC)c3)n2C)n(CC)c1=O,3
CC1(C)CCC[C@]2(C)[C@@H](C=O)C(C=O)=CC[C@@H]12,4
OCCc1ccccc1,33
C=C(C)C(=O)O[C@H]1CC2=C[C@@H](C/C(C)=C/[C@H]3OC(=O)C(=C)[C@H]13)OC2=O,-21
CCCCN1C[C@H](O)[C@@H](O)[C@H](O)[C@H]1CO,-13

# For quick reference, copied from above (sample 3):
target,test,remaining binding [%]
"FLT3 (Homo sapiens, UniProt P36888, D835Y)","cell-free assay, competition with immobilised ligand",100
"PIP4K2B (Homo sapiens, UniProt P78356)","cell-free assay, competition with immobilised ligand",91
"INSRR (Homo sapiens, UniProt P14616)","cell-free assay, competition with immobilised ligand",100
